Experimental data gathered from unrelated publications.
Compare with care: the assays were run in different laboratories. Numbers after ± are the reported error.

With CC[C@H](C)[C@H](NC(=O)[C@@H](NC(=O)[C@H](CC(N)=O)NC(=O)[C@H](CCC(N)=O)NC(=O)[C@@H]1CCCN1C(=O)[C@@H](NC(=O)[C@H](Cc1ccc(O)cc1)NC(=O)CNC(=O)[C@H](Cc1ccc(O)cc1)NC(=O)[C@H](Cc1c[nH]c2ccccc12)NC(=O)[C@H](Cc1c[nH]cn1)NC(=O)[C@H](Cc1ccc(O)cc1)NC(=O)CCOCCOCCOCCOCCOCCOCCC(=O)NCCCN(CCCNC(=O)CCOCCOCCOCCOCCOCCOCCC(=O)N[C@@H](Cc1ccc(O)cc1)C(=O)N[C@@H](Cc1c[nH]cn1)C(=O)N[C@@H](Cc1c[nH]c2ccccc12)C(=O)N[C@@H](Cc1ccc(O)cc1)C(=O)NCC(=O)N[C@@H](Cc1ccc(O)cc1)C(=O)N[C@H](C(=O)N1CCC[C@H]1C(=O)N[C@@H](CCC(N)=O)C(=O)N[C@@H](CC(N)=O)C(=O)N[C@H](C(=O)N[C@H](C(=O)O)[C@@H](C)CC)C(C)C)[C@@H](C)O)CC(=O)NCCCN(CCCNC(=O)CN(CCCNC(=O)CCOCCOCCOCCOCCOCCOCCC(=O)N[C@@H](Cc1ccc(O)cc1)C(=O)N[C@@H](Cc1c[nH]cn1)C(=O)N[C@@H](Cc1c[nH]c2ccccc12)C(=O)N[C@@H](Cc1ccc(O)cc1)C(=O)NCC(=O)N[C@@H](Cc1ccc(O)cc1)C(=O)N[C@H](C(=O)N1CCC[C@H]1C(=O)N[C@@H](CCC(N)=O)C(=O)N[C@@H](CC(N)=O)C(=O)N[C@H](C(=O)N[C@H](C(=O)O)[C@@H](C)CC)C(C)C)[C@@H](C)O)CCCNC(=O)CCOCCOCCOCCOCCOCCOCCC(=O)N[C@@H](Cc1ccc(O)cc1)C(=O)N[C@@H](Cc1c[nH]cn1)C(=O)N[C@@H](Cc1c[nH]c2ccccc12)C(=O)N[C@@H](Cc1ccc(O)cc1)C(=O)NCC(=O)N[C@@H](Cc1ccc(O)cc1)C(=O)N[C@H](C(=O)N1CCC[C@H]1C(=O)N[C@@H](CCC(N)=O)C(=O)N[C@@H](CC(N)=O)C(=O)N[C@H](C(=O)N[C@H](C(=O)O)[C@@H](C)CC)C(C)C)[C@@H](C)O)CC(=O)NCCOCCOCCOCCOCCC(=O)N[C@@H](CCCCNC(=O)CC[C@H](C(=O)O)N1CCN(CC(=O)O)CCN(CC(=O)O)CC1)C(N)=O)[C@@H](C)O)C(C)C)C(=O)O [gallium-68 labelled] the half-life was 62 min (radio-HPLC; human serum; 37 °C).
For CC[C@H](C)[C@@H]1NC(=O)CNC(=O)[C@@H]2CSSC[C@@H]3NC(=O)[C@H](Cc4ccc(O)cc4)NC(=O)[C@@H]4CSSC[C@H](NC(=O)[C@H](CSSC[C@H](NC(=O)[C@H](Cc5c[nH]cn5)NC(=O)CNC(=O)[C@H](CCCCN)NC(=O)[C@H](CCCNC(=N)N)NC3=O)C(=O)N[C@@H](CCCCN)C(=O)N[C@@H](CCCNC(=N)N)C(=O)NCC(=O)N[C@@H](CCC(=O)O)C(=O)N[C@@H](CCCNC(=N)N)C(=O)N[C@@H](C(C)C)C(=O)N[C@@H](CCCNC(=N)N)C(=O)NCC(=O)N[C@@H]([C@@H](C)O)C(=O)N2)NC(=O)[C@H](Cc2ccc(O)cc2)NC(=O)[C@H](CC(C)C)NC(=O)[C@H](Cc2ccccc2)NC(=O)[C@H](CCCNC(=N)N)NC1=O)C(=O)N1CCC[C@H]1C(=O)N[C@@H](CCCNC(=N)N)C(=O)N[C@@H](CCCNC(=N)N)C(=O)NCC(=O)N[C@@H](CC(C)C)C(=O)N[C@@H](CC(C)C)C(=O)N4, the half-life was greater than 2880 min (100% human serum; 27 µM, 37 °C, heat-inactivated serum).
Cc1ccc2nc(C(F)(F)F)c(C(=O)NCc3cccc(Cl)c3)n2c1 gave a half-life of less than 3 min (mouse liver microsomes).
The half-life of N=C(N)NCCC[C@@H]1NC(=O)[C@H](CCCNC(=N)N)NC(=O)[C@H](CCCNC(=N)N)NC(=O)[C@H](CCCNC(=N)N)NC(=O)[C@H](Cc2c[nH]c3ccccc23)NC(=O)[C@H](CCCNC(=N)N)NC(=O)[C@H](CCCNC(=N)N)NC(=O)[C@@H](N)CCn2cc(nn2)C[C@@H](C(N)=O)NC1=O is reported as 18.4 min (trypsin degradation, HPLC; PBS; pH 7.4, 37 °C, added: trypsin 0.1 ng/mL).
The half-life of CSCC[C@H](NC(=O)[C@H](Cc1ccccc1)NC(=O)CNC(=O)[C@@H](C)NC(=O)[C@@H](N)Cc1ccc(O)cc1)C(=O)N1CCC[C@H]1C(=O)N[C@@H](CC(C)C)C(=O)N[C@@H](Cc1c[nH]c2ccccc12)C(=O)NCc1cc(C(F)(F)F)cc(C(F)(F)F)c1 is reported as 288 min (rat plasma; 50 µg/mL, 37 °C).
C#Cc1c(F)ccc2cc(O)cc(-c3ncc4c(N5CC6CCC(C5)N6C(=O)CC(C)CC(=O)OCC)nc(OC[C@@]56CCCN5C[C@H](F)C6)nc4c3F)c12 (some centres unmarked) has a half-life of 25.7 min (mouse whole blood; 1 µM).
With CC(COC(=O)c1ccccc1)OC(=O)C(N)C(C)C (mixture of isomers) the half-life was greater than 120 min (90% rat intestinal perfusate; 100 µM).
The half-life of Cc1ccc(OCCN(C)C)cc1C(=O)N[C@H](C)c1cc(-c2cnn(C)c2)cc(-c2cnn(CCN3CCOCC3)c2)c1 is reported as greater than 145 min (mouse liver microsomes).
C=CCc1ccc(OC(=O)COC(=O)Cn2cnc3c2c(=O)n(C)c(=O)n3C)c(OC)c1 gave a half-life of 2100 min (0.1 M HCl; 75 µM, pH 1.4, 37 °C, simulated gastric conditions).
CC[C@H](C)[C@@H]1NC(=O)[C@H](CC(N)=O)NC(=O)[C@@H]2CCCN2C(=O)[C@@H](NC(=O)[C@H](CC(N)=O)NC(=O)[C@@H](N)CCC(N)=O)COC(=O)[C@H](CCSC)NC(=O)[C@H](Cc2c[nH]c3ccccc23)NC(=O)[C@H](CCC(N)=O)NC(=O)CNC(=O)[C@H](Cc2ccccc2)N(C)C1=O gave a half-life of greater than 1440 min (PBS with chymotrypsin; 0.28 mM, pH 7.2, 37 °C, added: chymotrypsin 50 nM).
For CC(C)(N)CNC(=O)O[C@H]1CCCC2(C1)OOC1(O2)C2CC3CC(C2)CC1C3 (some centres unmarked), the half-life was greater than 120 min (human liver microsomes).
CC(COC(=O)c1ccccc1)OC(=O)C(N)Cc1ccccc1 (mixture of isomers) gave a half-life of greater than 1800 min (isotonic buffer; pH 1.2, 37 °C).
With CC(C)[C@H](NC(=O)[C@H]1CCC[C@@H]1NC(=O)[C@H](CC(N)=O)NC(=O)[C@H](CCCNC(=N)N)NC(=O)[C@H]1CCC[C@@H]1NC(=O)[C@@H](N)Cc1ccccc1)C(=O)N[C@@H](Cc1ccccc1)C(=O)N[C@H]1CCC[C@@H]1C(=O)N[C@@H](Cc1ccccc1)C(=O)N[C@@H](Cc1ccc(O)cc1)C(=O)N[C@H]1CCC[C@@H]1C(=O)N[C@H](C(=O)N[C@@H](CC(=O)O)C(N)=O)[C@@H](C)O the half-life was 22.8 min (LC-MS; human serum; 10 µM, 37 °C).
With COc1ccc(Cn2cnc3cc(C)c(C)cc32)cc1 the half-life was less than 2 min (mouse liver microsomes).
For CC[C@H](C)[C@@H]1NC(=O)[C@H](Cc2ccc(O)cc2)NC(=O)[C@@H](N)Cn2cc(nn2)CCCC[C@@H](C(=O)N2CCC[C@H]2C(=O)N[C@@H](CC(C)C)C(=O)NCC(N)=O)NC(=O)[C@H](CC(N)=O)NC(=O)[C@H](CCC(N)=O)NC1=O, the half-life was greater than 2880 min (RP-HPLC-MS; human pregnancy serum; 37 °C).
The half-life of CCc1ccc([C@@H]2C[C@H](C(F)(F)F)n3ncc(C(=O)NCc4ccc(OC)cc4)c3N2)cc1 is reported as greater than 30 min (human liver microsomes).
N#Cc1ccc(NC(=O)c2cccnc2)cc1Cl has a half-life of greater than 120 min (plasma stability; human plasma; 5 µM, 37 °C).
For CC(C)[C@H](N)C(=O)OCOC(=O)c1ccccc1.O=C(O)C(F)(F)F, the half-life was 0.14 min (isotonic buffer; pH 7.4, 37 °C).
Cc1ccc(OCCN(C)C)cc1C(=O)N[C@H](C)c1cc(-c2cnn(C)c2)cc(-c2cnn(C(C)C)c2)c1 gave a half-life of 79.7 min (mouse liver microsomes).
The half-life of CSCC[C@H](NC(=O)CNC(=O)CNC(=O)[C@H](CO)NC(=O)[C@H](CC(C)C)NC(=O)[C@@H]1CCCN1C(=O)[C@H](CO)NC(=O)[C@H](CC(N)=O)NC(=O)[C@H](CC(C)C)NC(=O)[C@H](C)NC(=O)[C@@H](NC(=O)[C@H](CC(C)C)NC(=O)[C@H](Cc1c[nH]cn1)NC(=O)[C@H](CC(C)C)NC(=O)[C@@H](NC(=O)[C@@H]1CCCN1C(=O)[C@H](CCC(N)=O)NC(=O)[C@H](Cc1ccccc1)NC(=O)[C@H](CC(=O)O)NC(=O)[C@H](CCCNC(=N)N)NC(=O)[C@H](Cc1c[nH]cn1)NC(=O)[C@H](CO)NC(=O)[C@H](Cc1c[nH]cn1)NC(=O)[C@H](CCSC)NC(=O)[C@H](CC(=O)O)NC(=O)CNC(=O)[C@H](CCCNC(=N)N)NC(=O)[C@H](CC(=O)O)NC(=O)CNC(=O)[C@@H](N)CCCNC(=N)N)C(C)C)C(C)C)C(N)=O is reported as 13.9 ± 0.525 min (metabolic stability; human whole blood; 20 µg/mL, 37 °C).
With c1cc2c(s1)CCOC21CCN(Cc2ccc3c(c2)OCCO3)CC1 the half-life was less than 3 min (mouse liver microsomes).
With Cc1ccc2nc(C)c(C(=O)NCc3ccc(C(F)(F)F)cc3)n2c1 the half-life was 15 min (mouse liver microsomes; 2 µM).
For CC[C@H](C)[C@@H]1NC(=O)[C@H](Cc2ccc(O)cc2)NC(=O)[C@@H](N)CSCSC[C@@H](C(=O)N2CCC[C@H]2C(=O)N[C@@H](CC(C)C)C(=O)NCC(N)=O)NC(=O)[C@H](CC(N)=O)NC(=O)[C@H](CCC(N)=O)NC1=O, the half-life was 38900 ± 576 min (phosphate buffer; 0.1 mg/mL, pH 2.0, 40 °C).
For CC(C)(C)C(=O)OCOP(=O)(OCOC(=O)C(C)(C)C)C1CCCN(O)C1=O (centres unmarked), the half-life was roughly 0.5 min (mouse plasma; ex vivo).
CCC(CC)OC1C=C(C(=O)OC(C)OC(=O)C(N)C(C)C)CC(NC(=N)N)C1NC(C)=O (mixture of isomers) gave a half-life of 14.3 ± 7.7 min (Caco-2 cell homogenate; pH 7.4, 37 °C, 500 µg/mL protein).
CCCCCCCC(=O)OC[C@H](NC(=O)[C@H](CO)NC(=O)CN)C(=O)N[C@@H](Cc1ccccc1)C(=O)N[C@@H](CC(C)C)C(=O)N[C@@H](CO)C(=O)N1CCC[C@H]1C(=O)N[C@@H](CCC(=O)O)C(=O)N[C@@H](Cc1cnc[nH]1)C(=O)N[C@@H](CCC(N)=O)C(=O)N[C@@H](CCCNC(=N)N)C(=O)N[C@H](C(=O)N[C@@H](CCC(N)=O)C(=O)N[C@@H](CCC(N)=O)C(=O)N[C@@H](CCCNC(=N)N)C(=O)N[C@@H](CCCCN)C(=O)N[C@@H](CCC(=O)O)C(=O)N[C@@H](CO)C(=O)N[C@@H](CCCCN)C(=O)N[C@@H](CCCCN)C(=O)N1CCC[C@H]1C(=O)N1CCC[C@H]1C(=O)N[C@@H](C)C(=O)N[C@@H](CCCCN)C(=O)N[C@@H](CC(C)C)C(=O)N[C@@H](CCC(N)=O)C(=O)N1CCC[C@H]1C(=O)N[C@@H](CCCNC(=N)N)C(=O)O)C(C)C gave a half-life of 10 ± 3 min (two-site ELISA; healthy men and women, plasma; continuous intravenous infusion, 3 µg/kg/h, 65 min infusion).
COc1ccc2nc(C)cc(OCC(=O)Nc3cc(C)cc(C)c3)c2c1 gave a half-life of less than 3 min (mouse liver microsomes).
For Cc1cc(O)cc(C)c1C[C@H](N)C(=O)N[C@H](C)C(=O)NCC(=O)N[C@@H](Cc1ccc(F)cc1)C(=O)N1CCC[C@H]1C(=O)N[C@@H](CC(C)C)C(=O)N[C@@H](Cc1c[nH]c2ccccc12)C(=O)NCc1cc(C(F)(F)F)cc(C(F)(F)F)c1, the half-life was roughly 360 min (rat plasma; 50 µg/mL, 37 °C).
The half-life of CC(=O)N[C@@H](Cc1ccc(O)cc1)C(=O)N[C@@H](CC(=O)O)C(=O)N[C@@H](C)C(=O)N[C@@H](Cc1ccccc1)C(=O)N[C@@H](Cc1ccc(O)cc1)C(=O)N[C@@H](C)C(=O)N[C@@H](Cc1ccc(O)cc1)C(=O)N[C@H](C(=O)N[C@H](C(=O)N[C@@H](Cc1ccccc1)C(=O)N[C@@H](Cc1c[nH]cn1)C(=O)N[C@H](C(=O)N[C@@H](C)C(=O)N[C@H](C(N)=O)[C@@H](C)O)C(C)C)[C@@H](C)O)C(C)C is reported as less than 10 min (LC-MS; human serum; 10 µM, 37 °C).

A few entries again:
The half-life of CCc1ccc([C@@H]2C[C@H](C(F)(F)F)n3ncc(C(=O)NCc4ccc(OC)cc4)c3N2)cc1 is reported as greater than 30 min (human liver microsomes).
With CC(C)[C@H](NC(=O)[C@H]1CCC[C@@H]1NC(=O)[C@H](CC(N)=O)NC(=O)[C@H](CCCNC(=N)N)NC(=O)[C@H]1CCC[C@@H]1NC(=O)[C@@H](N)Cc1ccccc1)C(=O)N[C@@H](Cc1ccccc1)C(=O)N[C@H]1CCC[C@@H]1C(=O)N[C@@H](Cc1ccccc1)C(=O)N[C@@H](Cc1ccc(O)cc1)C(=O)N[C@H]1CCC[C@@H]1C(=O)N[C@H](C(=O)N[C@@H](CC(=O)O)C(N)=O)[C@@H](C)O the half-life was 22.8 min (LC-MS; human serum; 10 µM, 37 °C).
